Measurements of several laboratories.
A part holds a random share of what one study measured.

Block 1
Target: RNA binding protein fox-1 homolog 2, RRM domain, GST-SBP tag (RBFOX2, Homo sapiens, UniProt O43251-10, residues 100-194)
Method: RNA Bind-n-Seq
Form: RNA
Medium: in vitro
Concentration: 365 nM
Setting: natural RNA segment, single round, ends assumed
Baseline: no-protein control
Reading: higher = stronger binding
Shared flanks, not repeated: GGGAGUUCUACAGUCCGACGAUC … UGGAAUUCUCGGGUGCCAA
Target sequence (chain): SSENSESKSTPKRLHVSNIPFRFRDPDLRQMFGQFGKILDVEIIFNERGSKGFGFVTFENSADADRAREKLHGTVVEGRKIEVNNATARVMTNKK
Strand | RBNS enrichment (R)
AGCCUGGAGCCUGUGCCCAGGGCCGACAGGCGCGACACCCAGCAAGGCCACCUCUCCCCGGGCCCCCGCGCCUCUGCCGGACACGGACCGGCCCCUCAGCCCCCACCGAG | 0.366
GACCACAUCGGUGUAGCAUUGACCUCCGAGUUUUACCUGCUGUGUCUUCCCUGCUGUAGAGAUGUUCCUGUGCACCUGAGGAGCCUCCUGCCUGCCGUCCUUGCGUCCAC | 3.09
UCGCAGCUGGAGUGAGAGGCAGGUGGCGGCCGGGGCCGAAGCCAGCAGUGUCUAAACCCCCGGAGCCAUCUUGCUGCCGACACCCUGCUUUCCCCUCGCCCUAGGGCUCC | 0.208
GUCUGUAGUCUUUAUGAUCCUAAAAGGGAAAAUUGCCUUGGUAACUUUCAGAUUCCUGUGGAAUUGUGAAUUCAUACUAAGCUUUCUGUGCAGUCUCACCAUUUGCAUCA | 0.551
AGUCGGCCAUCUAGCAGCUCCCAGAACCCACGGCUGCCACUGCGUCCGUAUAAACCUGUCAGCACGCACGAGGGUGUCUGUGUUCUAGGAAACGAAUGACUAAUAGCAUU | 0.259
GCCGAGAUGCAGGGCAAAGUUGCUGUGGCAUCUUUGUUCCUCUCCCUGGGUCUGCACUCCCUCCCCUGUGCCUGACUAAGCCUUGUUCAUUGUUCUUUCAUCCUUACAAG | 0.783
AAGAGCUCCAGCAGGCUACACAGAGAUGCUCAGCCCUCAGCGCUUGCAGGCUUCCCGUCACGUGUCCCUGCUGGAAGGCUAUUCAGUGUUUGUAUUUAUUGUGCCUUACA | 0.801
GAUUUAGCUUUUCUUUUGUUAUAUAAACUGCUAGCCACAAAUUUUAGUUAUGUAAAAGGCUACCCUUGACAAGAAAAGACAUACUGUCAUGUAUUUAUAUUCUAGCAUAG | 0.766

Block 2
Target: Sal-like protein 4, full length isoform A (SALL4, Homo sapiens, UniProt Q9UJQ4, residues 1-1053)
Chain of UniProt Q9UJQ4 (whole entry, looked up): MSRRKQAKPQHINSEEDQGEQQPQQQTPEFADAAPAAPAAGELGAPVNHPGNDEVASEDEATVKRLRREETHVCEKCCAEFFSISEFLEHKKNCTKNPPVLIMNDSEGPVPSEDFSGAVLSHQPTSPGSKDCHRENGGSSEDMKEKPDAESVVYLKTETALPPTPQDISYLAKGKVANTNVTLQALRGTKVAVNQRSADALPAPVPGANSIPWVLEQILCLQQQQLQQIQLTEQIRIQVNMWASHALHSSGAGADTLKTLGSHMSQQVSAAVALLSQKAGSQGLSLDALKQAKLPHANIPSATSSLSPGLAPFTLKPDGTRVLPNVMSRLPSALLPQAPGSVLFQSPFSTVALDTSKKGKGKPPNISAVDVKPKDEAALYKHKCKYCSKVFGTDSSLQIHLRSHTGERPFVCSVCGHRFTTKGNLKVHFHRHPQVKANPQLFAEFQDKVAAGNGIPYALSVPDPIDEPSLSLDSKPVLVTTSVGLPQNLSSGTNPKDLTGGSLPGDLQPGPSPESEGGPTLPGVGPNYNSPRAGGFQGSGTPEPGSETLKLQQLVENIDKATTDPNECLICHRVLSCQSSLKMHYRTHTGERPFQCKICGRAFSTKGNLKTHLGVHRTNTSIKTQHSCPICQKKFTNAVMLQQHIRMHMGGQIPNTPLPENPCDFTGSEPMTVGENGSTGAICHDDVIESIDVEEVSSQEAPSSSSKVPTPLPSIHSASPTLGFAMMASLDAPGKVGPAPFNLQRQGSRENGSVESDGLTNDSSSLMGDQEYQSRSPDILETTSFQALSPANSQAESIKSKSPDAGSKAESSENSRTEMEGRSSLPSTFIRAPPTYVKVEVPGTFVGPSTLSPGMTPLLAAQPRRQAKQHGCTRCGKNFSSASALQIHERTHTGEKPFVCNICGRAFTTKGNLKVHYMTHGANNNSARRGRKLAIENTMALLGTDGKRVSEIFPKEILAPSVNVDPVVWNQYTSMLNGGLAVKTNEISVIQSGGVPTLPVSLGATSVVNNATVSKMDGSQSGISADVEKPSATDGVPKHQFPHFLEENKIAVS
Method: universal PBM
Form: double-stranded DNA, one strand shown
Medium: in vitro
Concentration: 600 nM
Setting: 8-mer, flanks averaged, mean of replicates
Reading: higher = stronger binding
Strand | E-score
AATATTTC | 0.445
AATTGAAT | 0.28
CACTGGAA | -0.0423
TGCGTCAA | 0.0603
CCCTTGAC | -0.2
GTCAAAAA | 0.245
ACAAGTTA | 0.178
CCATTGTA | 0.176
AGCTATTA | 0.257
CGAAGTAC | 0.0319
CACGAAAA | 0.158
AAGCGTAA | 0.0607
CTCCCCCC | -0.331
ATCAAAAG | 0.165
AGATACAC | 0.0777
CCCCCGAC | -0.15
AATCCTAG | 0.121

Block 3
Target: Histone acetyltransferase KAT6A, winged helix 2, GST fusion (KAT6A, Homo sapiens, UniProt Q92794, residues 85-181)
Method: protein binding microarray
Form: double-stranded DNA, one strand shown
Medium: in vitro
Concentration: not given
Setting: 8-mer, flanks averaged, mean of 2 arrays, mostly near background
Baseline: not given
Reading: higher = stronger binding
Residues (chain): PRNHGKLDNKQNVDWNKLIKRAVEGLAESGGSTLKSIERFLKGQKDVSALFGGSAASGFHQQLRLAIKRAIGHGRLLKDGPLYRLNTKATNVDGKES
Strand | E-score
AACTCCAA | 0.0847
AATTTATA | 0.14
GGCGTCCA | 0.045
CCATGGCC | -0.0899
ATTTGATC | -0.0389
ATAGAAAG | -0.0988
CTCAGGTC | 0.135
CTTTGCTC | 0.0883
AGTCGCCG | 0.0901
AATCTCAT | -0.0191
TCCCGTAA | 0.0118
CCCATACC | -0.127
AATCCTGA | 0.0773
ATTCAAAC | -0.0541
GACTTAGC | -0.127
ATGTAATC | -0.0816
GGGAACTA | 0.0948
ACTCCCAC | 0.0198
AATCCGTA | -0.23
AGAGCAAC | 0.19
CTTAGCCA | -0.039
GTTATTCA | 0.0835

Block 4
Target: Fragile X messenger ribonucleoprotein 1, C-terminal low-complexity region (Fmr1, Mus musculus, UniProt P35922)
Method: RNA Bind-n-Seq
Form: RNA
Medium: in vitro
Concentration: 200 nM
Setting: whole 134-nt RNA, ends assumed
Together with: 150 mM LiCl
Baseline: input library
Reading: higher = stronger binding
Each molecule: 7-deaza-guanosine replaces G
Shared flanks, not repeated: GGGAGUUCUACAGUCCGACGAUC … UGGAAUUCUCGGGUGUCAAGG
Strand | log2 enrichment
UCCUCAAGUCCUGUGCUACACAUCGUAUGUACCGAAUCGGAGGGAGGAGGGAAAGUAUUAUGUUACGCCGUUCGGAUCUGCACUUCCAGC | -1.77
GGCCCGACCUGAUCGACUUUGAUAAGCUGAAGGACUCCAAUGCCCGGCACAACCUGGAGCACGCAUUCAAUGUGGCUGAGCGCCAGCUGG | -0.819
CAAGUCCUGUGCUACACAUCGUAUGUACCGAAUCGGAAAAGGGAAAAGGAAAAGGGAAAGUAUUAUGUUACGCCGUUCGGAUCUGCACUU | -1.28
UGGAGCACAGGGCGAGCUCUCCUCCGCCCUGCAGCCUCAGGUAAGGAUCCGGACCUUCACUGCUGCCCCAACUGGGGCUCCUCAGCUCGG | -0.482
UCAAGUCCUGUGCUACACAUCGUAUGUACCGAAUCGGAAAAAAAGGAGGAAAGGAAAGUAUUAUGUUACGCCGUUCGGAUCUGCACUUCC | -0.658
CAAGUCCUGUGCUACACAUCGUAUGUACCGAAUCGGGAAAGGGAAAGGGGAAAGGGAAAGUAUUAUGUUACGCCGUUCGGAUCUGCACUU | -1.04
CUGUGCUACACAUCGUAUGUACCGAAUCGGGAAAAAAAGGGAAAAAAAGGGUUUUUUUGGGAAAGUAUUAUGUUACGCCGUUCGGAUCUG | -1.67

Block 5
Target: RING finger protein unkempt homolog, zinc fingers 1-6, SBP tag (UNK, Homo sapiens, UniProt Q9C0B0, residues 30-357)
Chain of UniProt Q9C0B0 (30-357, looked up): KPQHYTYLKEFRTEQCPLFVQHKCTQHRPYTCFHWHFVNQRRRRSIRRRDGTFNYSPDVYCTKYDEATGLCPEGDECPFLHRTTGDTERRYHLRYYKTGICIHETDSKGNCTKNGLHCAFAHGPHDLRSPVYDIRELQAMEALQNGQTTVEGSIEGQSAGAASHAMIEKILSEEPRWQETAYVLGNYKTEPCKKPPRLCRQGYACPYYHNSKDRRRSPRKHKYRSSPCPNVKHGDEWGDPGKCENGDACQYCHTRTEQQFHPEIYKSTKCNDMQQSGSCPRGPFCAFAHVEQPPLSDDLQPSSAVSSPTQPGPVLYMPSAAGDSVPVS
Method: RNA Bind-n-Seq
Form: RNA
Medium: in vitro
Concentration: 100 nM
Setting: RNA with constant flanks, vertebrate orthologous sites, ends assumed
Baseline: input RNA pool
Reading: higher = stronger binding
Shared flanks, not repeated: GGGAGUUCUACAGUCCGACGAUC … CAACAGAGGAUUGAGCAUCA
Strand | bound/input enrichment [ratio]
AAAUAUACUUCAUGCCAUGGACUCCAUAUCGCACUGAUACUUUGAUAGAAUAUGCUUCUUUAGAGGACUUCCAAAAUGGACGCCAACAGACAACUUACAAACUUCCAAAUCGAGUGGACG | 1.54
UAUUUUCUUAUUUUAGGUAUCAUUGCCCAAUGCCUAAGAUCUUUUACGUUCAGCUCACUGUAGGAAAUAAUGAAUUUUUUGGGGAAGGAAAGACUCGACAAGCUGCUAGACACAAUGCUG | 1.3
GCCUUACACUUAAACUGGUAUUUUCAAACAAUAGGAAACUAUUUUCUUUUUUACAGUUUAGUGUGUAUCUGGCUUGUACAUGGAAGACUAAAAUGUUUGAUUUGCUAAAUAUGGUCUUUG | 0.163
AGCAACCCAAGGAUUCAGGACUGGUUUUACAAAUAUACCAAGUAGAUAUGGAACUAACAAUAGAAUUGGACAACCAAGACCAUGACAUACUGUGAUUUAAUUUAUUUUAUGAGGAAUAUU | 0.501
AGCAAGUCAAGGCUUCAGGACUGGUUUUACAAAUAUACCAAGUAGAUAUGGAACUAACAAUAGAAUUGGACAACCAAGACCAUGAUGUACUCUAACUUAAUUUAUUAUUUUUUUUCAGGA | 1.69

Repeated from above (block 1):
Strand | RBNS enrichment (R)
AGCCUGGAGCCUGUGCCCAGGGCCGACAGGCGCGACACCCAGCAAGGCCACCUCUCCCCGGGCCCCCGCGCCUCUGCCGGACACGGACCGGCCCCUCAGCCCCCACCGAG | 0.366
AAGAGCUCCAGCAGGCUACACAGAGAUGCUCAGCCCUCAGCGCUUGCAGGCUUCCCGUCACGUGUCCCUGCUGGAAGGCUAUUCAGUGUUUGUAUUUAUUGUGCCUUACA | 0.801
AGUCGGCCAUCUAGCAGCUCCCAGAACCCACGGCUGCCACUGCGUCCGUAUAAACCUGUCAGCACGCACGAGGGUGUCUGUGUUCUAGGAAACGAAUGACUAAUAGCAUU | 0.259
GUCUGUAGUCUUUAUGAUCCUAAAAGGGAAAAUUGCCUUGGUAACUUUCAGAUUCCUGUGGAAUUGUGAAUUCAUACUAAGCUUUCUGUGCAGUCUCACCAUUUGCAUCA | 0.551
